Results gathered from unrelated publications.
Every numbered part comes from another study and shows a few of its results, in no order. “And” joins repeats or separate records; there may be more than shown.
Chain of UniProt P10398 (whole entry, looked up): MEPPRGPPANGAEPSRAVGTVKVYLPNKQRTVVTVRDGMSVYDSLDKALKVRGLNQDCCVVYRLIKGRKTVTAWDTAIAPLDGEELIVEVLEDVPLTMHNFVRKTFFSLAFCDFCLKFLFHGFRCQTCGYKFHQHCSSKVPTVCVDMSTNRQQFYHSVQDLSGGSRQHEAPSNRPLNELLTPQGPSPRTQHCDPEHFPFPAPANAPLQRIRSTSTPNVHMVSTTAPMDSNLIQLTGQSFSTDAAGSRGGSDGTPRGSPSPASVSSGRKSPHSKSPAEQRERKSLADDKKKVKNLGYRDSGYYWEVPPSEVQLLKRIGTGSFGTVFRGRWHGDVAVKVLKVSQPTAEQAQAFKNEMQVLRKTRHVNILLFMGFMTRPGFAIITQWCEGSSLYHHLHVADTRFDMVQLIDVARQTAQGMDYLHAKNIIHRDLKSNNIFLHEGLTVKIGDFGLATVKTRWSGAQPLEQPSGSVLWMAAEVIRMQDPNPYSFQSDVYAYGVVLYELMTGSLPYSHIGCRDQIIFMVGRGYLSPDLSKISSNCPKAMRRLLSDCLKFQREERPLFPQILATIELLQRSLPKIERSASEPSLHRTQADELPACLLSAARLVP
Chain of UniProt P24723 (whole entry, looked up): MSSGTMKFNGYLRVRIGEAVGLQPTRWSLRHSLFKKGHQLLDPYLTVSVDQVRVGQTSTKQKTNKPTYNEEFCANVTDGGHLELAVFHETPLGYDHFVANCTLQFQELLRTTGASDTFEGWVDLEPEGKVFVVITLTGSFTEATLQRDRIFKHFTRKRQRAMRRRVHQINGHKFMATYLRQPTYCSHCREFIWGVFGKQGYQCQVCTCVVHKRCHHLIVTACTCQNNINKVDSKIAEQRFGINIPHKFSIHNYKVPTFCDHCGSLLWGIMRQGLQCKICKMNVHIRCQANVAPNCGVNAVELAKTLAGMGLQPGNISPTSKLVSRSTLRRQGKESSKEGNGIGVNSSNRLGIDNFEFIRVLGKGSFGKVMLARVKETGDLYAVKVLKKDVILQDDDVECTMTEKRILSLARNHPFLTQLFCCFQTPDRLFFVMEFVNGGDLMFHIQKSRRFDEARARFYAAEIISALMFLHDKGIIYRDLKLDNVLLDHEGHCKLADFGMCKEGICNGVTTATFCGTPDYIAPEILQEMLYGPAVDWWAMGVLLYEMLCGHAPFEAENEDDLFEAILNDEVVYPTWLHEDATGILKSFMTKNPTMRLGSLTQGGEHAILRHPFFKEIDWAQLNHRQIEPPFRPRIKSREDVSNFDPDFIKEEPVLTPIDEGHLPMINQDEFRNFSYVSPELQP
Chain of UniProt Q07912 (whole entry, looked up): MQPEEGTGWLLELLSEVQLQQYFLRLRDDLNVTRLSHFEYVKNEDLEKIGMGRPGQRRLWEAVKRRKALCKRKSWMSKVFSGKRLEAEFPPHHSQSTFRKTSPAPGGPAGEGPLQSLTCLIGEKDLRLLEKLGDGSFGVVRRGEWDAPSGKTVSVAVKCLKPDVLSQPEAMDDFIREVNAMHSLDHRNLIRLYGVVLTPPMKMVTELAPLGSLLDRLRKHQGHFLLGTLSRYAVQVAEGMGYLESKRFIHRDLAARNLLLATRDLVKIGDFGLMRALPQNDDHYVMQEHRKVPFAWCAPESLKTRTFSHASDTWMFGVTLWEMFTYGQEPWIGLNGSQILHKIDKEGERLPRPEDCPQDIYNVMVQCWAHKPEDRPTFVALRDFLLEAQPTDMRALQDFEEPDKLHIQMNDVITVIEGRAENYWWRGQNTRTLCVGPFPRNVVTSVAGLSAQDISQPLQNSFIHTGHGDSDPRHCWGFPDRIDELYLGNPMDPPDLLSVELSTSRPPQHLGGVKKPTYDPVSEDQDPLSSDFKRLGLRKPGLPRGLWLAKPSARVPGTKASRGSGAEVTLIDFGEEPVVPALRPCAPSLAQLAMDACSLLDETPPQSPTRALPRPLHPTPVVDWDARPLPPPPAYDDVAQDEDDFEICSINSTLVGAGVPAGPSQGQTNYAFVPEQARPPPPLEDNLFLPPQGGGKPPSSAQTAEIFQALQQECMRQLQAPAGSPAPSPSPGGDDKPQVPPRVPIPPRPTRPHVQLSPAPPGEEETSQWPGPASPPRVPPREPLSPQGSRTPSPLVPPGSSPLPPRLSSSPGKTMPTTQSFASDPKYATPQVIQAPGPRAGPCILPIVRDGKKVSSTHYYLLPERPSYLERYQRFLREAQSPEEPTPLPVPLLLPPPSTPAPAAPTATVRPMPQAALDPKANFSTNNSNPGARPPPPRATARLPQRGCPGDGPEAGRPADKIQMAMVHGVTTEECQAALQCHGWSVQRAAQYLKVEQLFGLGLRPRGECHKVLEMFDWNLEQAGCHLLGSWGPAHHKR
Chain of UniProt Q13164 (whole entry, looked up): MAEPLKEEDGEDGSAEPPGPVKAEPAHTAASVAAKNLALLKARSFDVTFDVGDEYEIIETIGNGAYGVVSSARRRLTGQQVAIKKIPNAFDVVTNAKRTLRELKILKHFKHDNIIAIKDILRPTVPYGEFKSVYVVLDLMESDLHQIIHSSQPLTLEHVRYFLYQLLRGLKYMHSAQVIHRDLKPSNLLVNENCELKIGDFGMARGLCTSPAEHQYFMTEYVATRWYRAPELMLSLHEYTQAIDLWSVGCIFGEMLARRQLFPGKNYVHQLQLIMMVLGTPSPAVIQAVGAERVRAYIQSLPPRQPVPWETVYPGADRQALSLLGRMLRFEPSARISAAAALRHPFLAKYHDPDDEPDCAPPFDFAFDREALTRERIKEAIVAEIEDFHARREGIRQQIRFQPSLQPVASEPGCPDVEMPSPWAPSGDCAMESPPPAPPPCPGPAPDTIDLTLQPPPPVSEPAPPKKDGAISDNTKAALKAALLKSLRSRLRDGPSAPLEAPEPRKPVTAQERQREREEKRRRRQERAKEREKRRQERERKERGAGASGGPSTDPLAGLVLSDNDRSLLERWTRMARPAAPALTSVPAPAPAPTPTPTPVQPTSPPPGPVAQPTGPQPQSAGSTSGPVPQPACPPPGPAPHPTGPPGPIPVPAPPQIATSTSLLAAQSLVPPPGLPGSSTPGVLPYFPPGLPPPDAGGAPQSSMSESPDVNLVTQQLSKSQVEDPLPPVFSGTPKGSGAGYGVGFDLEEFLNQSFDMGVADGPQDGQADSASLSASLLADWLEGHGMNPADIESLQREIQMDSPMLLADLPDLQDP
Chain of UniProt Q9P1W9 (whole entry, looked up): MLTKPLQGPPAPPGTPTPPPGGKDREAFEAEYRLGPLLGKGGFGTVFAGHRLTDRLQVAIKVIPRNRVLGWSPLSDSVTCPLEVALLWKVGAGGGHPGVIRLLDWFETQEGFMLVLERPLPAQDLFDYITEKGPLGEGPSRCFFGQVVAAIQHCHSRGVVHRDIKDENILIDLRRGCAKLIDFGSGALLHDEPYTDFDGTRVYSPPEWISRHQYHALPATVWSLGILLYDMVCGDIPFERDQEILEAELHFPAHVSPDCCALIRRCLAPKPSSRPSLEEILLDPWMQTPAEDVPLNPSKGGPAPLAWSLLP

Series 1 — read-out: cell-free assay; tested at: 10 µM; measurement: inhibition
Target: 5-hydroxytryptamine receptor 5A (HTR5A, Homo sapiens, UniProt P47898)
Chain of UniProt P47898 (whole entry, looked up): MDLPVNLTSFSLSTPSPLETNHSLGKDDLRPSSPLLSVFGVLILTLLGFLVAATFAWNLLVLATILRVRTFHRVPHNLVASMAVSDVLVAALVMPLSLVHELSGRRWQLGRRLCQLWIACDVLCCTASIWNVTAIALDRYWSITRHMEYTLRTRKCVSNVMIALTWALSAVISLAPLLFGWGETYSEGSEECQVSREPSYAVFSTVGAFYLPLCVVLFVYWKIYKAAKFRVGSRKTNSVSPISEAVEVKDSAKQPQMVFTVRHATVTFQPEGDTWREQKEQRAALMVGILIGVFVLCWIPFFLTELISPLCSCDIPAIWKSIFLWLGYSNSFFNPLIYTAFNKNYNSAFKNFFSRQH
SMILES = CN(C)[C@@H]1CCN(c2cc(-c3ccccc3)nc3ccnn23)C1; result = 13.8%
SMILES = O=C(NNS(=O)(=O)c1ccccc1)c1cc(-c2ccnnc2)ccc1F; result = -0.06%
SMILES = CNC(=O)Nc1ccc2c(c1)CC[C@]21OC(=O)N(CC(=O)N(Cc2ccc(F)cc2)[C@@H](C)C(F)(F)F)C1=O; result = 5.99%
SMILES = CCC(F)(F)c1cc(N2CCC(S(C)(=O)=O)CC2)nc2sc(C(N)=O)c(N)c12; result = 6.16%
SMILES = Nc1cnc(N2CCc3cc(S(=O)(=O)Nc4c(F)cc(Cl)cc4F)cc(N4CCCC4=O)c32)nc1; result = -4.87%
SMILES = CS(=O)(=O)c1cc(C2(NC(=O)c3cncc4c3cnn4-c3ccc(F)cc3)CC2)ccn1; result = -14.2%
SMILES = CN(c1ccnc(CNc2nc(Nc3ccc4c(c3)CC(=O)N4)ncc2C(F)(F)F)n1)S(C)(=O)=O; result = 1.82%
SMILES = CN1CCN(c2ccnc(NCCc3ccccc3)n2)CC1; result = 59.8%
SMILES = Cc1nc(C2CCN(C(=O)c3ccc(OC(F)(F)F)cc3N)CC2)c2ncc(N3CCN(C)CC3)cc2n1; result = -3.74%
SMILES = Cc1cc(-n2nc(Cc3cc(F)cc(C(F)(F)F)c3)nc2C)ccc1C(N)=O; result = 7.99%
SMILES = O=C1c2ccc(Nc3ccc(F)cc3F)cc2CCc2ccc(OC[C@H](O)CO)cc21; result = 13.8%
SMILES = Nc1nc(NCc2ccccc2)nc(-c2ccccc2CO)n1; result = 10.6%
SMILES = Cc1cc2c(-c3ccco3)cnc(N[C@@H]3CCN(C)C[C@H]3C(=O)NC3CCCCC3)c2[nH]c1=O; result = 24.1%
SMILES = C[C@H](c1ccc(F)cc1)N(Cc1cccc(C(=O)O)c1)C(=O)c1cnc2ccccc2c1; result = -1.89%
SMILES = CCC(=NO)C(C)=Cc1ccc(F)c(C)c1; result = -3.24%
SMILES = N#CC1(c2ccccn2)CCN(Cc2cc(C(=O)N3CCCC3)c(=O)n3ccccc23)CC1; result = -19.8%
SMILES = COCc1nc2cnc3cc(-c4c(C)noc4C)c(OC[C@H]4CCNC4)cc3c2n1[C@H](C)c1ccccc1; result = 21.5%
SMILES = C[C@H](c1ccc(F)cc1)N(Cc1ccc(Cl)c(C(=O)O)c1)C(=O)c1cnc2ccccc2c1; result = 1.77%
SMILES = CS(=O)(=O)N1CCCC(NC(=O)[C@H](CCC2CCCCC2)NC(=O)c2ccc(CNC(=O)c3cnc4ccccn34)cc2)C1 (some centres unmarked); result = 3.1%
SMILES = Cn1nc(C(F)(F)F)cc1-c1cnc(N2CCc3cc(S(=O)(=O)Nc4c(F)cc(Cl)cc4F)cc(N4CCCC4=O)c32)nc1; result = 7.89%
SMILES = COc1cc(-c2cn(C3CCc4ccccc4N(CC(F)(F)F)C3=O)nn2)ccc1-n1ccc(C)n1 (centres unmarked); result = 9.69%
SMILES = CNC(=O)c1ccc(Nc2ncc(C(F)(F)F)c(NCc3nccnc3N(C)S(C)(=O)=O)n2)cc1; result = -1.91%
SMILES = CN1C(=O)[C@@H](N2CCc3cn(Cc4ccccc4)nc3C2=O)COc2ccccc21; result = 21.1%
SMILES = COc1cccc(NC(=O)c2nc3scc(CN(C)Cc4ccccc4)c3c(=O)[nH]2)c1; result = 2.97%
SMILES = Nc1nc(NCc2ccccc2)nc(-c2cccc(CO)c2)n1; result = 0.66%

Series 2 — read-out: enzyme activity; mode: inhibitor; tested at: 0.5 µM; reference: control; measurement: remaining activity
Target: Non-receptor tyrosine-protein kinase TYK2 (TYK2, Homo sapiens, UniProt P29597)
Chain of UniProt P29597 (whole entry, looked up): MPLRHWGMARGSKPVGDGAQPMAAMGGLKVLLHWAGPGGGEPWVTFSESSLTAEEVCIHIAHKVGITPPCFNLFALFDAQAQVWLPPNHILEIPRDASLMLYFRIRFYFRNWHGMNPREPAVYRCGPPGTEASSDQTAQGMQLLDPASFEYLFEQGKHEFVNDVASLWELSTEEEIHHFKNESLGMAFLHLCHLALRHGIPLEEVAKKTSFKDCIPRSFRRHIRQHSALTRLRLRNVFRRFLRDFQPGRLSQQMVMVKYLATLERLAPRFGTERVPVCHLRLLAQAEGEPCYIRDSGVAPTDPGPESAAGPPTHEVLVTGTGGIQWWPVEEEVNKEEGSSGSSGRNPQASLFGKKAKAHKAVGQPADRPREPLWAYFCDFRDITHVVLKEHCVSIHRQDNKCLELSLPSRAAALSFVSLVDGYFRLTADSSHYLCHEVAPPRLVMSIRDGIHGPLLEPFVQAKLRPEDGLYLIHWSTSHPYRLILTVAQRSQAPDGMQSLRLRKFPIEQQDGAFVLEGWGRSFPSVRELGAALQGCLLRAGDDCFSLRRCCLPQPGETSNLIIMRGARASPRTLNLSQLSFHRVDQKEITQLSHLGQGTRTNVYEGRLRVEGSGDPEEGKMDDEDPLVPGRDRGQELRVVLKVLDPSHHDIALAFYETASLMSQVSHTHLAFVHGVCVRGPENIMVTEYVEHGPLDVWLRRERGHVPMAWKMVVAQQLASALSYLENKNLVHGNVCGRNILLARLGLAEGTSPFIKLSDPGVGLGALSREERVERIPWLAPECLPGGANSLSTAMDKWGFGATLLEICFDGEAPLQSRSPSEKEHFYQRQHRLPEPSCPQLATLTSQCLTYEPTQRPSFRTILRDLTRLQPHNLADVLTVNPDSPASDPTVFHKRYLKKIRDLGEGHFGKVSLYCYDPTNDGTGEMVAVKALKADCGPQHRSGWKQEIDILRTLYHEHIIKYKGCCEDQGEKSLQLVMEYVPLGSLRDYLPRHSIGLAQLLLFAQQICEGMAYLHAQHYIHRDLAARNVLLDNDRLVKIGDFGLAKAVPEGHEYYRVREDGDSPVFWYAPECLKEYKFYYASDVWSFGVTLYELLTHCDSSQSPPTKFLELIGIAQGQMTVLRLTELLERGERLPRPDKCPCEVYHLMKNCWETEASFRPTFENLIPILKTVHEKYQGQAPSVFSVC
Structure (SMILES) = O=S(=O)(NCCNC/C=C/c1ccc(Br)cc1)c1cccc2cnccc12; result = 103%
Structure (SMILES) = O=C1NC(=O)C(c2c[nH]c3ccccc23)=C1c1c[nH]c2ccccc12; result = 109%
Structure (SMILES) = CC(C)(C)n1nc(Cc2cccc3ccccc23)c2c(N)ncnc21; result = 99.5%
Structure (SMILES) = CC#CC(=O)Nc1cc2c(Nc3ccc(F)c(Cl)c3)ncnc2cn1; result = 106%
Structure (SMILES) = N#CC(=C(N)Sc1ccc(N)cc1)c1ccccc1C(F)(F)F; result = 102%
Structure (SMILES) = CCc1[nH]c(-c2ccc(OC)cc2)nc1-c1ccncc1; result = 106%
Structure (SMILES) = CCCC(=O)Oc1ccc2[nH]c(C(=O)c3cc4ccccc4[nH]3)cc2c1; result = 90.7%
Structure (SMILES) = Cc1cc(Nc2nc(-c3ccccc3)nc3ccccc23)n[nH]1; result = 34.3%
Structure (SMILES) = Cc1cncc2cccc(S(=O)(=O)N3CCCN(C(=O)CN)C[C@@H]3C)c12; result = 86.6%
Structure (SMILES) = O=C1Cc2c([nH]c3ccc([N+](=O)[O-])cc23)-c2ccccc2N1; result = 56.5%
Structure (SMILES) = COc1ccc(S(=O)(=O)N(CCO)c2ccccc2CN(C)CC=Cc2ccc(Cl)cc2)cc1; result = 110%
Structure (SMILES) = Nc1nccc(-c2c(-c3ccc(F)cc3)ncn2C2CCNCC2)n1; result = 99.8%
Structure (SMILES) = COc1cc(Nc2c(C#N)cnc3cc(OCCCN4CCN(C)CC4)c(OC)cc23)c(Cl)cc1Cl; result = 98.1%
Structure (SMILES) = NC(=O)c1ccc(N(C(N)=O)c2c(F)cccc2F)nc1-c1ccc(F)cc1F; result = 93.5%
Structure (SMILES) = Nc1ncnc2c1cnn2-c1ccccc1; result = 86.7%
Structure (SMILES) = CSc1nc(-c2ccnc(N[C@@H](C)c3ccccc3)c2)c(-c2ccc(F)cc2)[nH]1 (racemic); result = 96.5%
Structure (SMILES) = Fc1ccc(-c2nc3n(c2-c2ccncc2)CCS3)cc1; result = 107%
Structure (SMILES) = CC(=O)c1ccc(N2CCOCC2)cc1O; result = 110%
Structure (SMILES) = CC[n+]1c(/C=C/N(C)c2ccccc2)n(-c2ccccc2)c2ccc(-c3nc4ccccc4s3)cc21; result = 88.5%
Structure (SMILES) = Oc1ccc(Nc2nc(-c3ccc(Cl)cc3)cs2)cc1; result = 110%
Structure (SMILES) = Cc1ccc(NC2=CC(=O)c3sc(C)nc3C2=O)cc1; result = 109%

Series 3 — read-out: enzyme activity; tested at: 5 µM; measurement: remaining activity
SMILES: O=C(Nc1cnn(-c2csc(C(=O)NC3COC3)c2)c1)Nc1ccccc1Cl
target = Serine/threonine-protein kinase A-Raf (ARAF, Homo sapiens, UniProt P10398); scale = reference: untreated control; result = 91.9%
target = Activated CDC42 kinase 1 (TNK2, Homo sapiens, UniProt Q07912); scale = reference: untreated control; result = 85.4%
target = High affinity nerve growth factor receptor (NTRK1, Homo sapiens, UniProt P04629); scale = reference: untreated control; result = 95.4%
target = Serine/threonine-protein kinase Nek5 (NEK5, Homo sapiens, UniProt Q6P3R8); test = inhibitor; result = 110%
target = Protein kinase C beta type, isoform beta-I (PRKCB, Homo sapiens, UniProt P05771); scale = reference: untreated control; result = 101%
target = Bone morphogenetic protein receptor type-1B (BMPR1B, Homo sapiens, UniProt O00238); scale = reference: untreated control; result = 108%
target = Serine/threonine-protein kinase NIM1 (NIM1K, Homo sapiens, UniProt Q8IY84); scale = reference: untreated control; result = 101%
target = Receptor-interacting serine/threonine-protein kinase 3 (RIPK3, Homo sapiens, UniProt Q9Y572); test = inhibitor; result = 101%
target = Homeodomain-interacting protein kinase 1 (HIPK1, Homo sapiens, UniProt Q86Z02); scale = reference: untreated control; result = 92.8%
target = Protein kinase C eta type (PRKCH, Homo sapiens, UniProt P24723); scale = reference: untreated control; result = 100%
target = Tyrosine-protein kinase TXK (TXK, Homo sapiens, UniProt P42681); scale = reference: untreated control; result = 87.5%
target = Tyrosine-protein kinase Mer (MERTK, Homo sapiens, UniProt Q12866); scale = reference: untreated control; result = 92.4%
target = Serine/threonine-protein kinase pim-2 (PIM2, Homo sapiens, UniProt Q9P1W9); scale = reference: untreated control; result = 96%
target = Serine/threonine-protein kinase SIK3 (SIK3, Homo sapiens, UniProt Q9Y2K2); test = inhibitor; result = 92.4%
target = Platelet-derived growth factor receptor alpha (PDGFRA, Homo sapiens, UniProt P16234); scale = reference: untreated control; result = 91.7%
target = Mitogen-activated protein kinase 7 (MAPK7, Homo sapiens, UniProt Q13164); scale = reference: untreated control; result = 110%
target = Serine/threonine-protein kinase tousled-like 2 (TLK2, Homo sapiens, UniProt Q86UE8); scale = reference: untreated control; result = 98.7%
target = Serine/threonine-protein kinase WNK2 (WNK2, Homo sapiens, UniProt Q9Y3S1); scale = reference: untreated control; result = 95.6%
target = Dual specificity mitogen-activated protein kinase kinase 7 (MAP2K7, Homo sapiens, UniProt O14733); test = inhibitor; result = 112%
target = Serine/threonine-protein kinase SBK1 (SBK1, Homo sapiens, UniProt Q52WX2); scale = reference: untreated control; result = 98.8%
target = Protein kinase C theta type (PRKCQ, Homo sapiens, UniProt Q04759); scale = reference: untreated control; result = 100%
target = Citron Rho-interacting kinase (CIT, Homo sapiens, UniProt O14578); scale = reference: untreated control; result = 87.6%
target = Cyclin-dependent kinase 2, with cyclin A1 (CDK2, Homo sapiens, UniProt P24941); scale = reference: untreated control; result = 101%

Series 4 — cell line: NCI-H446; time: 5 days; reference: DMSO; measurement: cell growth
Structure (SMILES): CCC[C@H]1NC(=O)[C@H](Cc2cc(Cl)ccc2-c2cnn(C)c2)N(C)C(=O)[C@H](CC(C)C)NC(=O)[C@@H](N(C)C(=O)[C@H](CCCCN2CCOCC2)NC(=O)[C@@H](c2cccnc2)C2CCCCC2)CCCCNC1=O
test = cell counting; conditions = 1.52 nM; result = 73.4% and 82%
test = Vi-Cell counting; conditions = 10 µM, added: Myt1 inhibitor 1000 nM; result = 6.62% and 7.56%
test = Vi-Cell counting; conditions = 41.1 nM, added: Myt1 inhibitor 1000 nM; result = 69.4% and 57.1%
test = cell counting; conditions = 371 nM; result = 79.4% and 74.1%
test = Vi-Cell counting; conditions = 124 nM, added: Myt1 inhibitor 1000 nM; result = 47.4% and 59.2%
test = cell counting; conditions = 1.11 µM; result = 83.1% and 78.3%
test = cell counting; conditions = 511 pM; result = 95.4%
test = cell counting; conditions = 3.33 µM; result = 72.1% and 69.1%

For quick reference, copied from above (series 3):
target = Tyrosine-protein kinase TXK (TXK, Homo sapiens, UniProt P42681); scale = reference: untreated control; result = 87.5%
target = Receptor-interacting serine/threonine-protein kinase 3 (RIPK3, Homo sapiens, UniProt Q9Y572); test = inhibitor; result = 101%
target = Cyclin-dependent kinase 2, with cyclin A1 (CDK2, Homo sapiens, UniProt P24941); scale = reference: untreated control; result = 101%
target = Serine/threonine-protein kinase SIK3 (SIK3, Homo sapiens, UniProt Q9Y2K2); test = inhibitor; result = 92.4%
target = High affinity nerve growth factor receptor (NTRK1, Homo sapiens, UniProt P04629); scale = reference: untreated control; result = 95.4%
target = Mitogen-activated protein kinase 7 (MAPK7, Homo sapiens, UniProt Q13164); scale = reference: untreated control; result = 110%
target = Serine/threonine-protein kinase WNK2 (WNK2, Homo sapiens, UniProt Q9Y3S1); scale = reference: untreated control; result = 95.6%
target = Serine/threonine-protein kinase tousled-like 2 (TLK2, Homo sapiens, UniProt Q86UE8); scale = reference: untreated control; result = 98.7%
target = Activated CDC42 kinase 1 (TNK2, Homo sapiens, UniProt Q07912); scale = reference: untreated control; result = 85.4%
